Measurements of several laboratories.
Numbered parts are unrelated; each lists some results of a single study. Several values in a cell are separate wells, animals, samples, runs or records.
Chain of UniProt Q5XXA6 (whole entry, unmodified, looked up): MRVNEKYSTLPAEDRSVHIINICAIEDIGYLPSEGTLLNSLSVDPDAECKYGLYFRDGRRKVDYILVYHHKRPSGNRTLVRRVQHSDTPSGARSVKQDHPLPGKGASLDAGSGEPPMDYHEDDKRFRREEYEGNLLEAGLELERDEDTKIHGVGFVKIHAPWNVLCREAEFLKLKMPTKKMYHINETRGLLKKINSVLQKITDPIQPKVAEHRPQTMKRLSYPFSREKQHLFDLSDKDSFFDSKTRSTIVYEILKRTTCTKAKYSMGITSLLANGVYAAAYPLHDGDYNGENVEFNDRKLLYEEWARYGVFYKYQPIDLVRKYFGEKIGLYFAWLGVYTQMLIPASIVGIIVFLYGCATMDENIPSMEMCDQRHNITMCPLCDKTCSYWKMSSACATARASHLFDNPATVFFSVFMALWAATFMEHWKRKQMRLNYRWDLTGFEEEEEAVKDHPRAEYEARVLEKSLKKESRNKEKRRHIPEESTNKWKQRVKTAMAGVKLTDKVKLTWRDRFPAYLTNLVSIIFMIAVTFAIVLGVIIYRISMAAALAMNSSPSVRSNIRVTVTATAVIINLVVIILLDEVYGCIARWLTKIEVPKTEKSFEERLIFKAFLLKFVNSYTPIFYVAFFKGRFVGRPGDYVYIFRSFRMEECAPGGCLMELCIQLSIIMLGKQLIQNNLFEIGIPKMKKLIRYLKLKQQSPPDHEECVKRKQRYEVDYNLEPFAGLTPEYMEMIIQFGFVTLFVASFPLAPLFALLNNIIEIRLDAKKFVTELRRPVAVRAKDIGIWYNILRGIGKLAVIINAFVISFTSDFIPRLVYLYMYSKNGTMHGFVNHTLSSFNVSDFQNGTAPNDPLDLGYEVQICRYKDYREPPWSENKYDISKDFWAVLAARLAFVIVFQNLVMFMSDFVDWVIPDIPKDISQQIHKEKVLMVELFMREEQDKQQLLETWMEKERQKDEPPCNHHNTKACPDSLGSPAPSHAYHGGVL
Chain of UniProt Q8TDX7 (whole entry, looked up): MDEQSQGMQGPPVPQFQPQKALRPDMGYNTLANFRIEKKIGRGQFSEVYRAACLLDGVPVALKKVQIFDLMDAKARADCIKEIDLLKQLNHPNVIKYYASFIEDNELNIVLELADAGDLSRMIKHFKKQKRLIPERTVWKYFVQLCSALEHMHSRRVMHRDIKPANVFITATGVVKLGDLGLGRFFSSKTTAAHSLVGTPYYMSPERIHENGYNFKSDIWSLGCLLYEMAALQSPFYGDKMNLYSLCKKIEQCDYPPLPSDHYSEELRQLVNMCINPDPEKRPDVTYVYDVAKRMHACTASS
Chain of UniProt P07333 (whole entry, looked up): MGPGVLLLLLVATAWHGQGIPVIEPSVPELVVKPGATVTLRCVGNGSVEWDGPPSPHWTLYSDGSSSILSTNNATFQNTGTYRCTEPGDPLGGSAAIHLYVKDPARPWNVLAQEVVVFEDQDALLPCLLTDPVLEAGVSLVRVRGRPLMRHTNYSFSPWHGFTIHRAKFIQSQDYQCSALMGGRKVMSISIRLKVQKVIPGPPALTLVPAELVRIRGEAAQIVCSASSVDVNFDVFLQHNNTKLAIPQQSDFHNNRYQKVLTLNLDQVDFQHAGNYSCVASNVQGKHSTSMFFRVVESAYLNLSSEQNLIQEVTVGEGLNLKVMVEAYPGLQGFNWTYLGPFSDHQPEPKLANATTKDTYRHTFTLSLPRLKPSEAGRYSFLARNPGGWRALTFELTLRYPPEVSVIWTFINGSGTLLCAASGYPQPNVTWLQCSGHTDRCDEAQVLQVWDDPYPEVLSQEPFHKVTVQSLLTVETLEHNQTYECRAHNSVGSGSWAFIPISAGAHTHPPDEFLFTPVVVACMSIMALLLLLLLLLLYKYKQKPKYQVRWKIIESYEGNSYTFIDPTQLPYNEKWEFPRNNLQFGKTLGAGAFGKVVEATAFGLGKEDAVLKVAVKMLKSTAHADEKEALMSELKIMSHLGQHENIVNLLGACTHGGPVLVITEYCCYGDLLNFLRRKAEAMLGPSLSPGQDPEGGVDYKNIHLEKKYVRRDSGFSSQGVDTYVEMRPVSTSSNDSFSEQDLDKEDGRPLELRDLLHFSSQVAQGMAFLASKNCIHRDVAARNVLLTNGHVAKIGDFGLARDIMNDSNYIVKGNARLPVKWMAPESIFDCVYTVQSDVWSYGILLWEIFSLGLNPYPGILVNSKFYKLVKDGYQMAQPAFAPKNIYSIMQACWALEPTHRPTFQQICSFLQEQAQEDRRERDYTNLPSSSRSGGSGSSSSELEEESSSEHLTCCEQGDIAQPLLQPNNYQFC
Chain of UniProt P51957 (whole entry, looked up): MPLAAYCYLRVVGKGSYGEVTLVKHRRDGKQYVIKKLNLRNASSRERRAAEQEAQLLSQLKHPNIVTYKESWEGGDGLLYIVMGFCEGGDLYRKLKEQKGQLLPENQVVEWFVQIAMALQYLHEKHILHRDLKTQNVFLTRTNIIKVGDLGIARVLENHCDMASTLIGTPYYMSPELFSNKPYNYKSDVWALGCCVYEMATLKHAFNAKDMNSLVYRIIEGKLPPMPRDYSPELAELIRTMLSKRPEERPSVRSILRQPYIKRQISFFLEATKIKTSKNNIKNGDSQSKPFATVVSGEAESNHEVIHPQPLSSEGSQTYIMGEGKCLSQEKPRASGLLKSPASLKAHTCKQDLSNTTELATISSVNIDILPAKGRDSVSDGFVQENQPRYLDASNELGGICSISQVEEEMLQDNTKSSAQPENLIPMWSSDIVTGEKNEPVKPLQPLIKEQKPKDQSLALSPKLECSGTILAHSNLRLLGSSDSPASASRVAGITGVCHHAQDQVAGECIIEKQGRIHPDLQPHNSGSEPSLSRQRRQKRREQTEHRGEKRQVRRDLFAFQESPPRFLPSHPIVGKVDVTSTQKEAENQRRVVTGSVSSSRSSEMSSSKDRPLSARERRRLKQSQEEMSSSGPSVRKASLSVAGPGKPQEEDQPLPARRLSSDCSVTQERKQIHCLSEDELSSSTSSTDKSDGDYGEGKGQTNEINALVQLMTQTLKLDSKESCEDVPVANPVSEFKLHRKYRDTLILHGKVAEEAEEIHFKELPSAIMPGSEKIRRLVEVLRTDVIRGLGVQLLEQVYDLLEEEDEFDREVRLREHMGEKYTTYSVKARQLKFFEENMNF
Chain of UniProt O75116 (whole entry, looked up): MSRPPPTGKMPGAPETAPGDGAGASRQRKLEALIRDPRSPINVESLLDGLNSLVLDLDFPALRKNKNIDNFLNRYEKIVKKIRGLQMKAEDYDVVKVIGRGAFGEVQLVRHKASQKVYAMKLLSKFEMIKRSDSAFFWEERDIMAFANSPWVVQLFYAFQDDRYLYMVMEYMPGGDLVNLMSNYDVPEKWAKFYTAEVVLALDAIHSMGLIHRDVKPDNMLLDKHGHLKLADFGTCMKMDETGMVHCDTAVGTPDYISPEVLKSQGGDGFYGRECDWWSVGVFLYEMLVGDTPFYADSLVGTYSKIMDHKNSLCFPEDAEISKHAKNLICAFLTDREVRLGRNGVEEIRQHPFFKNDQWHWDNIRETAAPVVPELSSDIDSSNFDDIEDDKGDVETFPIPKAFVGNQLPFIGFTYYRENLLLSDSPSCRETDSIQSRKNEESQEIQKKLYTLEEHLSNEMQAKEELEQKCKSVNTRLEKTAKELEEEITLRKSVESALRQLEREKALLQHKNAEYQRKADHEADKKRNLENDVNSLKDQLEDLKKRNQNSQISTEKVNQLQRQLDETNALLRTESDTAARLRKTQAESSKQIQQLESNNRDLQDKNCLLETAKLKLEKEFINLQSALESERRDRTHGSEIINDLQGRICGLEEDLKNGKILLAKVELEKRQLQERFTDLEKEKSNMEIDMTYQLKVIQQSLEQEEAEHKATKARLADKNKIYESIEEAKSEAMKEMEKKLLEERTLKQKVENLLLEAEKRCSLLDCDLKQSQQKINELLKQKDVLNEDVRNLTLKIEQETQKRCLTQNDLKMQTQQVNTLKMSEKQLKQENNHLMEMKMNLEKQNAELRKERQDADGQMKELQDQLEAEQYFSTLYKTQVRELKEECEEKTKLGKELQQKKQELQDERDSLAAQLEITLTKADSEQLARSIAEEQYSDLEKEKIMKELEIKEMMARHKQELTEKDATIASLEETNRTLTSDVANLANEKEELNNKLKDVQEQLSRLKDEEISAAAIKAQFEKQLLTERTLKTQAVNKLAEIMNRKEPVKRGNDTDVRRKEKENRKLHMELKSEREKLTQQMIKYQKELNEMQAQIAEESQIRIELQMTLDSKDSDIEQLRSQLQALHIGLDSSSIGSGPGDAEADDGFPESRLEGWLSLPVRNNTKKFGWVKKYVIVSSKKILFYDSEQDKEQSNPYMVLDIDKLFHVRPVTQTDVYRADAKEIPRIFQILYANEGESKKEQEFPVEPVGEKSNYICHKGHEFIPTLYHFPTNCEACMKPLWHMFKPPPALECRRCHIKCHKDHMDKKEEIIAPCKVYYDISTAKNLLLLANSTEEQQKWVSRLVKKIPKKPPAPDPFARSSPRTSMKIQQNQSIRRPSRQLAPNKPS

Set 1
Compound: Cc1nccc(COC(=O)N2C[C@@H]3[C@@H](CNC(=O)c4ccc5[nH]nnc5c4)[C@@H]3C2)n1
Tested at: 1 µM
target | assay | remaining binding [%]
FLT3 (Homo sapiens, UniProt P36888, K663Q) | cell-free assay, competition with immobilised ligand | 100
NEK4 (Homo sapiens, UniProt P51957) | cell-free assay, competition with immobilised ligand | 79
WEE2 (Homo sapiens, UniProt P0C1S8) | cell-free assay, competition with immobilised ligand | 100
PRKG2 (Homo sapiens, UniProt Q13237) | cell-free assay, competition with immobilised ligand | 100
IKBKE (Homo sapiens, UniProt Q14164) | cell-free assay, competition with immobilised ligand | 100
FLT3 (Homo sapiens, UniProt P36888) | cell-free assay, competition with immobilised ligand | 89
PKN2 (Homo sapiens, UniProt Q16513) | cell-free assay, competition with immobilised ligand | 100
Aurora kinase B (AURKB, Homo sapiens, UniProt Q96GD4) | cell-free assay, competition with immobilised ligand | 93
FER (Homo sapiens, UniProt P16591) | cell-free assay, competition with immobilised ligand | 100
CAMK2D (Homo sapiens, UniProt Q13557) | cell-free assay, competition with immobilised ligand | 100
ROCK2 (Homo sapiens, UniProt O75116) | cell-free assay, competition with immobilised ligand | 86
CDK14 (Homo sapiens, UniProt O94921) | cell-free assay, competition with immobilised ligand | 100
NEK7 (Homo sapiens, UniProt Q8TDX7) | cell-free assay, competition with immobilised ligand | 100
FLT3 (Homo sapiens, UniProt P36888, ITD) | cell-free assay, competition with immobilised ligand | 100
DAPK3 (Homo sapiens, UniProt O43293) | cell-free assay, competition with immobilised ligand | 92
SIK1 (Homo sapiens, UniProt P57059) | competition binding | 98
EGFR (Homo sapiens, UniProt P00533, L858R/T790M) | cell-free assay, competition with immobilised ligand | 100
PIP4K2B (Homo sapiens, UniProt P78356) | cell-free assay, competition with immobilised ligand | 100
Macrophage colony-stimulating factor 1 receptor, autoinhibited (CSF1R, Homo sapiens, UniProt P07333) | cell-free assay, competition with immobilised ligand | 100
RIOK3 (Homo sapiens, UniProt O14730) | cell-free assay, competition with immobilised ligand | 100

Set 2
Target: MAP kinase-interacting serine/threonine-protein kinase 1 (MKNK1, Homo sapiens, UniProt Q9BUB5)
Chain of UniProt Q9BUB5 (whole entry, looked up): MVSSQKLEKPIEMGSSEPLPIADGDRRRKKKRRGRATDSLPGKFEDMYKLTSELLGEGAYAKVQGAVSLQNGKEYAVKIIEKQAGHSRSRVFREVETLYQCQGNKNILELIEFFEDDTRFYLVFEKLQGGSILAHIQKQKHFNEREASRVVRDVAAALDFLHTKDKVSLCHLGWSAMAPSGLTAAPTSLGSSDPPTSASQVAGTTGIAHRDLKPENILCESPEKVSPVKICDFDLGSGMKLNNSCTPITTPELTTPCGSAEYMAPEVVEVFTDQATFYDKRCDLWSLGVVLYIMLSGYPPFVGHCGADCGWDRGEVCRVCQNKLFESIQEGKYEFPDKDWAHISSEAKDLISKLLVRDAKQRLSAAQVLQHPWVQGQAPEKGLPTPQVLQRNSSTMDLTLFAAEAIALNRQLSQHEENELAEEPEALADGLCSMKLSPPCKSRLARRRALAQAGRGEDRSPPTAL
Effect on: enzyme activity
Action: inhibitor
Tested at: 0.5 µM
Relative to: control
SMILES | remaining activity
O=C1Nc2ccccc2/C1=C\c1c(Cl)[nH]c2ccccc12 | 105%
O=C1Cc2c([nH]c3ccc(Br)cc23)-c2ccccc2N1 | 98.4%
O=C(c1cc2cc(O)ccc2[nH]1)c1cc2cc(O)ccc2[nH]1 | 83.6%
O=Nc1c(-c2c(O)[nH]c3cc(Br)ccc23)[nH]c2ccccc12 | 102%
CN(C)S(=O)(=O)c1ccc2c(c1)/C(=C/c1cc3c([nH]1)CCCC3)C(=O)N2 | 108%
COc1ccc2c(c1)c(C1=C(c3c[nH]c4ccccc34)C(=O)NC1=O)cn2CCCN(C)C | 92.8%
c1ccc(-c2n[nH]c3c2oc2ccccc23)cc1 | 96.2%
Cc1cc(Nc2cc(N3CCN(C)CC3)nc(Sc3ccc(NC(=O)C4CC4)cc3)n2)[nH]n1 | 92.8%
O=c1cc(N2CCOCC2)oc2c(-c3ccccc3)cccc12 | 103%
CCCCc1c(-c2ccc(OC)cc2)[nH]c2nccnc12 | 97.7%
CN1CCN(c2ccc3nc(-c4c(N)c5c(F)cccc5[nH]c4=O)[nH]c3c2)CC1 | 88.7%
O=C1NC(=O)c2c1c1c3ccccc3[nH]c1n1cncc21 | 56.3%

Set 3
Host: human
Medium: microsomes or S9
Tested at: 2 µM
Time: 0.5 h
SMILES | remaining compound [%]
Brc1c[nH]nc1-c1nc2c3ccccc3ncn2n1 | > 99
Cc1cc(C)nc(SCc2nc3scc(C)n3c2Br)n1 | 0.477
CCn1ncc(Cl)c1-c1nc2c3cnn(C)c3ncn2n1 | 99
COc1ccc(C2(C)CC(C)(C)Nc3ccccc32)cc1 (stereo not shown) | 12.4
COc1ccc(C2C(C(=O)N3CCN(c4ccccn4)CC3)CCC(=O)N2c2cc(OC)c(OC)c(OC)c2)cc1 (stereo not shown) | 61.6

Set 4
Compound: C=CCc1ccc(O)c(-c2ccc(O)c(CC=C)c2)c1
Effect on: chloride current
Technique: whole-cell voltage clamp
target | assay | setting | IC50 [µM]
Anoctamin-1 (ANO1, Homo sapiens, UniProt Q5XXA6, del476-501/F803Y) | inhibitor | 60 mV holding voltage | 11.5
Anoctamin-1 (ANO1, Homo sapiens, UniProt Q5XXA6, del476-501/F807Y) | inhibitor | mutant F781Y | 13.4
Anoctamin-1 (ANO1, Homo sapiens, UniProt Q5XXA6, del476-501/F807A) | – | membrane voltage -40 mV | 29.7
Anoctamin-1 (ANO1, Homo sapiens, UniProt Q5XXA6, del476-501/E650A) | – | membrane voltage -40 mV | 3.7
Anoctamin-1 (ANO1, Homo sapiens, UniProt Q5XXA6, del476-501/F803W) | inhibitor | mutant F777W at 100 mV, added: 300 nM Ca2+ | 7.43
Anoctamin-1 (ANO1, Homo sapiens, UniProt Q5XXA6, del476-501/L548A) | – | membrane voltage -40 mV | 5.92
Anoctamin-1 (ANO1, Homo sapiens, UniProt Q5XXA6, del476-501/F807I) | inhibitor | F781I mutant at 20 mV | 6.4

Further values, each from its own experiment
Structure (SMILES) | assay | test system | setting | quantity | value
COc1ccc(-c2c(Nc3ccccn3)[nH]c3c(C4=CCCCC4)c(-c4ccccc4)nn3c2=O)cc1 | – | human, plasma | oral, 400 mg once daily | elimination rate constant | 0.0307 h⁻¹ and 0.0382 h⁻¹ and 0.0305 h⁻¹ and 0.0747 h⁻¹
CC(C)n1cnc(-c2ccc(F)cc2)c1-c1ncc(C(=O)Nc2ccc(N3CCN(C)CC3)cc2)[nH]1 | phase 2a clinical trial | patients with idiopathic pulmonary fibrosis | 30 mg once daily | patients with ALP increased TEAE | 0%

For quick reference, copied from above (further values, each from its own experiment):
Structure (SMILES) | assay | test system | setting | quantity | value
COc1ccc(-c2c(Nc3ccccn3)[nH]c3c(C4=CCCCC4)c(-c4ccccc4)nn3c2=O)cc1 | – | human, plasma | oral, 400 mg once daily | elimination rate constant | 0.0307 h⁻¹ and 0.0382 h⁻¹ and 0.0305 h⁻¹ and 0.0747 h⁻¹
CC(C)n1cnc(-c2ccc(F)cc2)c1-c1ncc(C(=O)Nc2ccc(N3CCN(C)CC3)cc2)[nH]1 | phase 2a clinical trial | patients with idiopathic pulmonary fibrosis | 30 mg once daily | patients with ALP increased TEAE | 0%
